Measured values pooled from the literature.
Compare with care: the assays were run in different laboratories.

C[C@@H](c1nc(-c2ccc(C#N)cc2)cs1)[C@](O)(Cn1cncn1)c1cc(F)ccc1F
adverse event Pruritus (healthy humans; oral, dose not given, added: ketoconazole): 0%

CNC(=O)c1ccc(-c2cnc3ncc(Cc4ccc5ncccc5c4)n3n2)cc1F
adverse events leading to treatment discontinuation (human, Japanese cohort; oral, 400 mg, organising pneumonia, any grade): 1 % patients

O=C(Nc1cnccc1Cl)N1CCN(Cc2ccc3c(c2)OC(F)(F)O3)CC1
adverse event incidence (item: Ecchymosis; human healthy young men; 10 mg, multiple dose): 0%

CO[C@H]1/C=C/O[C@@]2(C)Oc3c(C)c(O)c4c(O)c(c(/C=N/N5CCN(C)CC5)c(O)c4c3C2=O)NC(=O)/C(C)=C\C=C\[C@H](C)[C@H](O)[C@@H](C)[C@@H](O)[C@@H](C)[C@H](OC(C)=O)[C@@H]1C
adverse event incidence (item: respiratory thoracic mediastinal disorders; healthy human participants; oral, 600 mg, added: gepotidacin 1500 mg): 0%

O=C(COc1ccc(Cl)cc1)NC12CC(c3nnc([C@H]4C[C@@H](OC(F)(F)F)C4)o3)(C1)C2
adverse event incidence (item: post lumbar puncture syndrome; human; 200 mg once daily, 28 (unit not given)): 22.2%

O=C(NCCN1CCCC1)c1cc(-c2ccc(CN3CCOCC3)cc2)nc2ccc(F)cc12
adverse event duration (blurred vision, single ascending dose; human; oral, 2100 mg): 18.5 h

C[C@@H](N)c1cc(Cl)ccc1Cn1c(=S)[nH]c(=O)c2[nH]ccc21
adverse events causing discontinuation (human severe renal impairment; oral, 2.5 mg single dose): 0%

C=CC(=O)NC1CCN(c2ncc3ncnc(Nc4ccc(Oc5ccc6c(c5)ncn6C)c(C)c4)c3n2)CC1
adverse events incidence (item: musculoskeletal disorders (SOC); human male; oral, dose not given, CTCAE on-treatment AEs): 6%

CO[C@H]1/C=C/O[C@@]2(C)Oc3c(C)c(O)c4c(O)c(c(/C=N/N5CCN(C)CC5)c(O)c4c3C2=O)NC(=O)/C(C)=C\C=C\[C@H](C)[C@H](O)[C@@H](C)[C@@H](O)[C@@H](C)[C@H](OC(C)=O)[C@@H]1C
adverse event Fatigue (healthy humans; oral, dose not given): 8.3%

CN1CCc2nc(C(=O)N[C@@H]3C[C@@H](C(=O)N(C)C)CC[C@@H]3NC(=O)C(=O)Nc3ccc(Cl)cn3)sc2C1
adverse events (human; no serious adverse events, added: enzalutamide): not toxic

CNC(=O)c1ccc(-c2cnc3ncc(Cc4ccc5ncccc5c4)n3n2)cc1F
adverse event incidence (item: nausea; healthy human subjects; oral, dose not given, inhibition cohort, any grade, all-causality; baseline: subjects): 11.1%

C[C@@H](Oc1ccc(S(C)(=O)=O)cc1C(=O)N1C[C@@H]2C[C@]2(c2cc(C(F)(F)F)on2)C1)C(F)(F)F
adverse events (human; oral, 25 mg): 16.7%

CC(C)N(CCCCOCC(=O)NS(C)(=O)=O)c1cnc(-c2ccccc2)c(-c2ccccc2)n1
adverse event incidence (item: Fatigue; healthy male human; oral, 200 µg): 4.5%

A few entries again:
CO[C@H]1/C=C/O[C@@]2(C)Oc3c(C)c(O)c4c(O)c(c(/C=N/N5CCN(C)CC5)c(O)c4c3C2=O)NC(=O)/C(C)=C\C=C\[C@H](C)[C@H](O)[C@@H](C)[C@@H](O)[C@@H](C)[C@H](OC(C)=O)[C@@H]1C
adverse event incidence (item: respiratory thoracic mediastinal disorders; healthy human participants; oral, 600 mg, added: gepotidacin 1500 mg): 0%
